Published values gathered from unrelated publications.
Protocols differ between the studies behind these lines. Several values in a cell are separate wells, animals, samples, runs or records. ± gives the spread as reported.

| SMILES | test | system | setting | how to read | measurement | result |
| --- | --- | --- | --- | --- | --- | --- |
| C[C@@H]1NC(=O)[C@H](CCCCNC(=O)CO/N=C/C(=O)NCCCC[C@@H]2NC(=O)[C@@H](Cc3ccccc3)NC(=O)[C@H](CC(=O)O)NC(=O)CNC(=O)[C@H](CCCNC(=N)N)NC2=O)NC(=O)CNC(=O)[C@@H]2CCCN2C(=O)[C@H](CCCCNC(=O)CO/N=C/C(=O)NCCCC[C@@H]2NC(=O)[C@@H](Cc3ccccc3)NC(=O)[C@H](CC(=O)O)NC(=O)CNC(=O)[C@H](CCCNC(=N)N)NC2=O)NC(=O)[C@H](CCCCNC(=O)[C@H](CCCCN)NC(=O)[C@H](Cc2ccccc2)NC(=O)CNC(=O)CN2CCCNCCNCCCNCC2)NC(=O)[C@H](CCCCNC(=O)CO/N=C/C(=O)NCCCC[C@@H]2NC(=O)[C@@H](Cc3ccccc3)NC(=O)[C@H](CC(=O)O)NC(=O)CNC(=O)[C@H](CCCNC(=N)N)NC2=O)NC(=O)CNC(=O)[C@@H]2CCCN2C(=O)[C@H](CCCCNC(=O)CO/N=C/C(=O)NCCCC[C@@H]2NC(=O)[C@@H](Cc3ccccc3)NC(=O)[C@H](CC(=O)O)NC(=O)CNC(=O)[C@H](CCCNC(=N)N)NC2=O)NC1=O [copper-64 labelled] | – | normal mice, muscle | intravenous, 0.74 MBq, 24 h post-injection | – | tissue uptake | 0.2 ± 0.04 %ID/g |
| C[C@@H]1OC(=O)NN=C1c1ccc(-c2ccc(F)cc2)c(C(F)(F)F)c1 | phase I trial, refers to: muscle spasms worst grade 1 | human patients | 5 mg loading then 0.25 mg daily | – | patients with adverse event | 100% |
| Cc1cc(C)nc(Nc2ncc(C(=O)NCCc3c(C)[nH]c4ccccc34)cn2)c1 | – | mouse liver microsomes | 1 µM | – | maximal hepatic bioavailability | 24% |
| [O-][S+]1CCc2nc(N3CCC(c4ncc(Cl)cn4)CC3)nc(NC3(CO)CCC3)c21 (centres unmarked) | refers to: Nausea | healthy male humans | 36 mg single dose | – | adverse event incidence | 0% |
| O=C(Nc1ccccc1)C1CCN(C(=O)Oc2cccnc2)CC1 | adverse event reporting | healthy women | oral, 100 mg | – | subjects with Haematoma adverse event | 7.7% |
| C1=Cc2nc1cc1ccc([n-]1)c(-c1ccccc1)c1nc(cc3ccc([n-]3)c2-c2ccccc2)C=C1.CC(=O)[O-].[Mn+3] | LC-MS/MS | Sprague-Dawley rat, plasma | oral gavage, dose not given, 360 min | – | mean plasma concentration | 118 ng/mL |
| Cc1ccc(F)c2cc(C(=O)N[C@@H]3CCC[C@H](N4CC[C@H](N(C)S(C)(=O)=O)C4)C3)[nH]c12 | – | CD1 mouse, plasma | oral, 100 mg/kg, 7 h | – | plasma concentration | 1120 ng/mL |
| CC(=O)c1c(C)c2cnc(Nc3ccc(C4CCN(CCS(C)(=O)=O)CC4)cn3)nc2n(C2CCCC2)c1=O | – | HR+/HER2- advanced breast cancer patients | oral, dose not given, grade 3/4,, sample A patients | – | patients with GGT increased | 2.5% |
| NC(=O)[C@H]1CCN(c2ncnc(N)c2F)C[C@@H]1N1CCC[C@@H](Nc2cc(Cl)cc(C(F)(F)F)c2)C1=O | – | B-cell malignancy patients | oral, 82 mg twice daily, dose | – | grade ≥3 neutropenia | 0% |
| C=CCNc1c(O)cc2c(O)c1C[C@@H](C)C[C@H](OC)[C@H](O)[C@@H](C)/C=C(\C)[C@H](OC(N)=O)[C@@H](OC)/C=C\C=C(/C)C(=O)N2 | – | unresectable or metastatic sarcoma | intravenous, 300 mg/m^2, grade 3-4 lab change | – | patients with ALT increase | 0% |
| C[C@]1(CO)Cc2ncn(-c3ccc(C#N)c(Cl)c3)c2C(=O)O1 | – | human | 10 mg, European food-effect part, fasted | – | drug-related abnormal skin odour | 0% |
| COc1cc(N2CCC(N3CCN(C)CC3)CC2)ccc1Nc1ncnc(Nc2ccccc2S(=O)(=O)C(C)C)n1 | refers to: Anemia | Japanese patients with solid tumours | oral, dose not given, all grades | – | treatment-emergent adverse events | 4 number (percent) |
| COc1ccc(-c2c(-c3ccc(C#N)c(F)c3)nc(N3CCC(N)CC3)n(C)c2=O)cc1F | refers to: Dysgeusia | relapsed/refractory marginal zone lymphoma patients | oral, 60 mg, grade 3 to 4, dose expansion | – | treatment-related adverse event incidence | 0% |
| Nc1nc2cc(-c3ccc4ncc(C(=O)N5CCOCC5)n4c3)ccc2o1 | refers to: Hyperglycemia, any cause, all grades | patients with advanced solid tumours | dose not given | – | patients with adverse events | 37% |
| COc1ncnn2ccc(-c3cnc4nc(C)n(Cc5nnc([C@@H](C)F)o5)c4c3)c12 | – | human | oral, dose not given, grade 4 | – | patients with taste disorder | 0% |
| COc1ccc2nc3cc(Cl)ccc3c(Nc3cc(CN4CCCC4)c(O)c(CN4CCCC4)c3)c2n1 | – | mouse, blood | intraperitoneal, 14 mg/kg | – | basophil count | 0.18 10⁹/L |
| Oc1ccc(CSCc2ccc(O)cc2)cc1 | – | ICR mice male | oral, 6000 mg/kg, day 8, acute toxicity | baseline: day 1 | body weight gain | 6.05 ± 1.35 g |
| N[C@@H]1c2ccccc2OC12CCN(c1cnc3c(N4CCCc5ncccc54)n[nH]c3n1)CC2 | – | advanced solid tumour patients | oral, 40 mg once daily | – | patients with fatal TEAE | 0% |
| COc1cccc(Oc2ccccc2NC(=O)CNC(=O)c2cccc3ccccc23)c1 | – | esterase-deficient SCID mice, male | oral, 15 mg/kg/day, 14 days, toxicity study | – | serum albumin | 3 g/dL and 2.9 g/dL |

| SMILES | test | system | setting | how to read | measurement | result |
| --- | --- | --- | --- | --- | --- | --- |
| O=c1cc(-c2ccc(O)c(O)c2)oc2cc(O)cc(O)c12 | – | male Sprague-Dawley rat, obese | oral, 100 mg/kg of neohesperidin, 24 to 36 h, after β-glucuronidase/sulfatase hydrolysis | – | urinary excreted amount, total | 96.8 ± 14 ng |
| CC[C@H](C)[C@H](NC(=O)[C@H](Cc1ccccc1)NC(=O)[C@H](CCC(=O)O)NC(=O)[C@H](CCCNC(=N)N)NC(=O)[C@H](C)NC(=O)[C@H](C)NC(=O)[C@H](CCC(N)=O)NC(=O)[C@H](CCC(=O)O)NC(=O)[C@H](CCC(=O)O)NC(=O)[C@H](CC(C)C)NC(=O)[C@H](Cc1ccc(O)cc1)NC(=O)[C@H](CO)NC(=O)[C@H](CO)NC(=O)[C@@H](NC(=O)[C@H](CC(=O)O)NC(=O)[C@H](CO)NC(=O)[C@@H](NC(=O)[C@H](Cc1ccccc1)NC(=O)[C@@H](NC(=O)CNC(=O)[C@H](CCC(=O)O)NC(=O)[C@H](C)NC(=O)CCc1cnc[nH]1)[C@@H](C)O)[C@@H](C)O)C(C)C)C(=O)N[C@@H](C)C(=O)N[C@@H](Cc1c[nH]c2ccccc12)C(=O)N[C@@H](CC(C)C)C(=O)N[C@H](C(=O)N[C@@H](CCCNC(=N)N)C(=O)NCC(=O)N[C@@H](CCCNC(=N)N)C(=O)N[C@@H](CCCCNC(=O)COCCOCCNC(=O)COCCOCCNC(=O)CC[C@H](NC(=O)CCCCCCCCCCCCCCCCC(=O)O)C(=O)O)C(=O)NCC(=O)NCC(=O)N[C@@H](CO)C(=O)N[C@@H](CCCCNC(=O)[C@H](CCCCNc1c(NCCCCCN(O)C(=O)CCC(=O)NCCCCCN(O)C(=O)CCC(=O)NCCCCCN(O)C(C)=O)c(=O)c1=O)Nc1c(NCCCCCN(O)C(=O)CCC(=O)NCCCCCN(O)C(=O)CCC(=O)NCCCCCN(O)C(C)=O)c(=O)c1=O)C(=O)O)C(C)C [zirconium-89 labelled] | ex vivo gamma counting | male Sprague-Dawley rats, liver | intravenous, 1 nmol, 24 h | – | tissue uptake | 1.82 %ID/g |
| Cn1ncc(-c2nc(N[C@H]3CC[C@H](N)CC3)ncc2Cl)c1CC1CC1 | refers to: hypokalemia grade 3 or higher | human patients phase I | dose not given | – | adverse event incidence | 23% |
| CC[C@H](C)CCCCC(=O)N[C@@H](CCN)C(=O)N[C@H](C(=O)N[C@@H](CCN)C(=O)N[C@H]1CCNC(=O)[C@H]([C@@H](C)O)NC(=O)[C@H](CCN)NC(=O)[C@H](CCN)NC(=O)[C@H](CC(C)C)NC(=O)[C@@H](Cc2ccccc2)NC(=O)[C@H](CCN)NC1=O)[C@@H](C)O | – | critically ill patients, plasma | intravenous, 2.1 mg/kg/day, 6 h after fifth infusion start, median | – | concentration at steady state | 2700 ng/mL |
| O=S(=O)(Nc1ccccc1)c1ccc(NC(=S)Nc2ccccc2)cc1 | – | mouse, male, small intestine | oral, 80 mg/kg daily, 14 days | baseline: body weight | relative organ weight | 2.17% |
| CO[C@H]1C[C@@H]2CC[C@@H](C)[C@@](O)(O2)C(=O)C(=O)N2CCCC[C@H]2C(=O)O[C@H]([C@H](C)C[C@@H]2CC[C@@H](OC(=O)NCCOCCOCCOCCOCCOCCOCCOCCOCCC(=O)N3CCc4cc(Cn5nc(-c6ccc7oc(N)nc7c6)c6c(N)ncnc65)ccc4C3)[C@H](OC)C2)C[C@@H](O)[C@H](C)/C=C(\C)[C@@H](O)[C@@H](OC)C(=O)[C@H](C)C[C@H](C)/C=C/C=C/C=C/1C | dose-escalation trial | patients with advanced solid tumours | intravenous, all doses weekly, any grade | – | AEs leading to dose reduction | 10.5% |
| CN1CCN(S(=O)(=O)c2cc([N+](=O)[O-])ccc2N(CCOS(C)(=O)=O)CCOS(C)(=O)=O)CC1 | – | NOD/SCID mouse, naive, blood | intraperitoneal, 12.5 mg/kg, week 4 | – | hemoglobin | 142 g/L and 162 g/L and 158 g/L |
| COc1cc2c(Oc3ccc4[nH]c(C)cc4c3F)ccnc2cc1OCC1(N)CC1 | – | paediatric refractory sarcoma patients | 12 mg | – | Hematuria incidence | 36.4% |
| CC(C)C[C@H](NC(=O)[C@H](CCCCN)NC(=O)OCC1c2ccccc2-c2ccccc21)C(=O)N[C@H](C(=O)N[C@@H](Cc1ccccc1)C(=O)N[C@@H](Cc1ccccc1)C(=O)N[C@@H](CCCCN)C(=O)NCC(=O)N[C@@H](Cc1ccccc1)C(=O)N[C@@H](C)C(=O)N[C@@H](Cc1c[nH]c2ccccc12)C(=O)N[C@@H](CC(N)=O)C(=O)N[C@H](C(=O)N[C@H]1CSSC[C@@H](C(=O)N[C@@H](Cc2c[nH]cn2)C(=O)N[C@@H](CCCNC(=N)N)C(=O)N[C@@H](CCCNC(=N)N)C(=O)N[C@@H](C)C(=O)N[C@@H](CC(N)=O)C(N)=O)NC(=O)[C@H](C(C)C)NC(=O)[C@H](CCCNC(=N)N)NC(=O)[C@H](C(C)C)NC(=O)CNC(=O)[C@H](CC(N)=O)NC(=O)[C@H](CCCNC(=N)N)NC(=O)[C@H](Cc2ccc(O)cc2)NC(=O)[C@H](C(C)C)NC1=O)C(C)C)C(C)C | – | ICR mouse, blood | intramammary, 10 mg/kg, day 5, 3 d dosing | – | creatinine | 82.6 ± 3.33 µmol/L |
| CC1(C)[C@H](C(=O)O[C@H](C#N)c2cccc(Oc3ccccc3)c2)[C@@H]1C=C(Br)Br | refers to: CYP3A4 | human, age 5 years, recombinant human CYP3A4 | 0.1 µM | – | enzyme contribution to clearance | 0.73% |
| Cn1c(-c2ccc(C(N)=O)cc2F)nnc1C(C)(C)Oc1c(F)cc(Cl)cc1F | – | human | oral, 1 mg, single ascending dose | – | subjects with any TEAE | 50% |
| CCc1ccc(CC/C=C/c2ccc3c(c2)C(=O)CC3)cc1 | – | Sprague-Dawley rat, male | oral, 30 mg/kg/day, 14 days | – | Reticulocyte percentage | 6.49% |
| CC(C)CC(=O)OC[C@H]1O[C@@](C#N)(c2ccc3c(N)ncnn23)[C@H](O)[C@@H]1O | – | human plasma | 0.9 µM | – | fraction unbound | 0.193 |
| CCN1[C@@H](C(=O)NC23CCC(C(=O)O)(CC2)CC3)[C@H](c2cccc(Cl)c2F)[C@]2(C(=O)Nc3cc(Cl)ccc32)C12CCCCC2 | – | patients with advanced solid tumours | oral, 100 mg | – | Hypercholesterolemia incidence | 9.1% |
| CN1CC[C@@H](c2c(O)cc(O)c3c(=O)cc(-c4ccc(C(F)(F)F)cc4Cl)oc23)[C@@H]1CO | refers to: Diarrhea | B-cell malignancies | oral, 200 mg, intermittent dosing | – | patients with adverse event | 0% |
| Clc1cc2c(cc1Cl)Oc1c(ccc(Cl)c1Cl)O2 | – | cow whole milk | 200 nM | baseline: milk fat over skim milk | milk fat partition ratio | 351 |
| O=C(O)CCCOc1ccc(F)cc1-c1cc(-c2ccccc2C(F)(F)F)n(-c2ccccc2)n1 | refers to: Glu | Crl:CD(SD) rats, male, blood | iv, 25 µg/kg, 14 days | – | blood chemistry | 135 ± 24.4 mg/dL |
| C[C@@H](NC(=O)N1C(=O)[C@H](Cc2ccnc(N)c2)[C@H]1C(=O)O)C1CCCCC1 | – | healthy adult Chinese volunteers | continuous intravenous infusion, 2.25 mg/kg/h, 5-day infusion, CTCAE 5.0 grading | – | incidence of AEs leading to death | 0% |
| CCNCCCNC/C=C\CNCCCNCC | – | human, advanced solid tumours | intravenous, dose not given | baseline: patients | serious TEAE, nausea | 6.5% |

Excerpt of the above:
| SMILES | test | system | setting | how to read | measurement | result |
| --- | --- | --- | --- | --- | --- | --- |
| Oc1ccc(CSCc2ccc(O)cc2)cc1 | – | ICR mice male | oral, 6000 mg/kg, day 8, acute toxicity | baseline: day 1 | body weight gain | 6.05 ± 1.35 g |
| CCc1ccc(CC/C=C/c2ccc3c(c2)C(=O)CC3)cc1 | – | Sprague-Dawley rat, male | oral, 30 mg/kg/day, 14 days | – | Reticulocyte percentage | 6.49% |
| O=c1cc(-c2ccc(O)c(O)c2)oc2cc(O)cc(O)c12 | – | male Sprague-Dawley rat, obese | oral, 100 mg/kg of neohesperidin, 24 to 36 h, after β-glucuronidase/sulfatase hydrolysis | – | urinary excreted amount, total | 96.8 ± 14 ng |
| O=C(Nc1ccccc1)C1CCN(C(=O)Oc2cccnc2)CC1 | adverse event reporting | healthy women | oral, 100 mg | – | subjects with Haematoma adverse event | 7.7% |
| CC(C)CC(=O)OC[C@H]1O[C@@](C#N)(c2ccc3c(N)ncnn23)[C@H](O)[C@@H]1O | – | human plasma | 0.9 µM | – | fraction unbound | 0.193 |
